Measured values collected from several papers.
Every numbered part comes from another study and shows a few of its results, in no order. Substitutions count along the parent as printed.

Series 1
Target: CCNE1, cyclin fold, Cln2 fusion (human)
Technique: yeast growth competition, sequencing
Matrix: yeast
Setting: weak parent motif
Relative to: not given
Direction: higher = stronger binding
Parent: CDT1 docking peptide (human); PPARRRLRLSVDE
Substitution	normalised enrichment score
PPAARRLRLSVDE [R4A]	0.404
PPARRRLRLAVDE [S10A]	-0.189
PPARRRLRASVDE [L9A]	0.495
PPARRRLRFSVDE [L9F]	4.31
APARRRLRLSVDE [P1A]	0.206
PPARRRLRLSADE [V11A]	0.592
PPARRALRLSVDE [R6A]	0.303

Series 2
Target: Histone acetyltransferase KAT6A, winged helix 1, GST fusion (KAT6A, Homo sapiens, UniProt Q92794, residues 1-85)
Technique: protein binding microarray
Form: double-stranded DNA, one strand shown
Matrix: in vitro
Tested at: not given
Setting: 8-mer, flanks averaged, mean of 2 arrays, mostly near background
Relative to: not given
Direction: higher = stronger binding
Residues (chain): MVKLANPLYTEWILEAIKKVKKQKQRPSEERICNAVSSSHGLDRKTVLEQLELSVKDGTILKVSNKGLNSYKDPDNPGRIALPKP
Sequence	E-score
CGACTTAA	-0.105
ACTATTAG	-0.201
CACCACGG	0.156
CAAAGCTC	-0.14
ACTGCAAA	-0.195
CCGTCAGC	0.303
ACACTCGC	0.105
GTGGCAAC	-0.045
ACGGAGGG	0.0771
ATTGCTAA	-0.0732
AGCTAAGA	-0.211
CCCCCCGG	0.231
CAAGGACC	-0.0488
ATGCGTGG	0.0535
AGTTCAAC	-0.17
CTATTCGC	0.0199
ACTATCTG	-0.221
ACCTGCGC	0.195
GTCGCGTA	0.286
GAGTATAC	0.0732
AGCTCTGA	-0.0385

Series 3
Target: RING finger protein unkempt homolog, zinc fingers 1-6, GST-SBP tag (UNK, Homo sapiens, UniProt Q9C0B0, residues 30-357)
UniProt Q9C0B0, sequence (30-357, looked up): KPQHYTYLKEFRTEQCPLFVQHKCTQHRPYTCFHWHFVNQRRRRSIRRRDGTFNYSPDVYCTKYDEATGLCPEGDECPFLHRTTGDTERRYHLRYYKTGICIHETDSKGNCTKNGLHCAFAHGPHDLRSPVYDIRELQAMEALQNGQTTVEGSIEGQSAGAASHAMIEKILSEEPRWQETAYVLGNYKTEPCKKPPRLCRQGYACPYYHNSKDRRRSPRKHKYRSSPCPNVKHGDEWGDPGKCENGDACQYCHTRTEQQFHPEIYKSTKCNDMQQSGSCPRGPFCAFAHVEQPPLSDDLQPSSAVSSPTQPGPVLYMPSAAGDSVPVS
Technique: RNA Bind-n-Seq
Form: RNA
Matrix: in vitro
Tested at: not given
Setting: RNA with constant flanks, human and mouse sites, ends assumed
Relative to: input RNA pool
Direction: higher = stronger binding
Shared flanks, not repeated: GGGAGUUCUACAGUCCGACGAUC … CAACAGAGGAUUGAGCAUCA
Sequence	bound/input enrichment [ratio]
UGUACCGACCUUCUGAACAAGGCCAACACCUAUGCAGAGCAACAUUUUGCAGAUGUUGUACUUAGUGAAGAAUUUCUCAAUCUUGGCAUCGAACAAGUGUGCAGCUUAAUCUCAAGUGAC	0.0838
AUAAAUACAUUUAAAUUGCUCUCAUAUGCCUCCUAUUGUAUUGAGCAUGGUGACCUGGAGCUGGCAGCAAAGUUUGUCAAUCAGCUCAAAGGGGAGUCCAGAAGAGUGGCACAGGACUGG	0.262
CUGCCCAUUCUGAAAGGAGACAGAAACUUAACCUGGAGGUCAGACGUGCUGGUGGAAUAUCAAGGAGAAGGCCGGAAUGUCACCGACCCGACCUGCCCUUCUUUGAGUCCUGGAGUGUCU	0.0773
CUAGCACAAGGAGACAUGAAACAGCUGGCUGAAGAUGUGAAGCUGCAGCUGUAUAAGUUACUAGAAAUUCCUGAUCCAGACAAAAACUGGGCUACUCUGGCGCAGAAAUUAGGUCUGGGG	0.338
CCUCCCUGGAAUUUUUCUUGGAAGCCCCAUCAGUCCUUCUCUCUAUAUUUAUUUAUAAUGCCAGCAAGCCUCAAGUUCCGGAAUACGCACCUAGGCAAGAAAGGAUCCGAGAUCUAAGUG	1
GGAGGCUGGGAGAUGAUCAGAAAAAUUGGAGACACAUCAGUCAGUUAUAAAUAUACCUCAAGAUAUGUGCUGAAGGCAGGCCAGACUGUUACAAUUUGGGCUGCAAACGCUGGUGUCACA	0.382
UCAGCUAAAGCAGCUAUUGACUGGUUUGAUGGUAAAGAAUUCUCCGGAAAUCCUAUCAAGGUCUCAUUUGCUACUCGCCGGGCAGACUUUAAUCGGGGUGGUGGCAAUGGUCGUGGAGGC	0.0854
CCUGCCAACGGGGACUUCACCUUUGUGUCUUCGGCGGACGCGGAAGAUCUCAGCGGUUCUAUAGCAGCUCCAGAUGUCAAAUUAAACCUCGGUGUAAGCGGAGAUUUCAUCAAAGAAUCU	0.0576
UGUAACUUUUGUAAAUACACAUAGCAUGUAAUGGUAUCUUAAAGUGUGUUUCUAUGUGACAAUUUUGUACAAAUUUGUUAUUUUCCAUUUUUAUUUCAAAAUAUACAUUCAAACUUAAAA	0.523
AAUGCACAUGCACAAUAAUUUCCUGAAAGCCAUAGGACAUGUCUGUAGUCAGCACCACGAUAGCACCGUUUCAUGAAAGGCAUGGCGGCUGCAUUUCAUACCACAUCAAAAUACAGUAAC	0.441
GCUGACGACUUGGCGAGCAAGUUUCAGUUCAGUCGUGGCAUGCGCCGCAGUUAUGAUGCAGGGUUCAAGCUGAUGGUGGUGGAGUACGCCGAGAGCACCAACAACUGUCAGGCUGCCAAG	0.107

Series 4
Target: Prothrombin, mature alpha-thrombin (F2, Homo sapiens, UniProt P00734)
Technique: aptamer microarray, sandwich
Form: DNA with 2'F-ANA
Matrix: in vitro
Tested at: 200 nM
Setting: whole 15-mer aptamer, many near background
Added: Cy3 exosite-II aptamer, 400 nM
Direction: higher = stronger binding
Sequence: GGTTGGTGTGGTTGG
Modification	mean fluorescence intensity
2'F-ANA at 2 8 9 10 11 14	80.7 a.u.
2'F-ANA at 1 2 4 7 8 12 13 15	352 a.u.
2'F-ANA at 4 9 14	94.1 a.u.
2'F-ANA at 8 11 12	838 a.u.
2'F-ANA at 2 4 6 7 9 11 13	151 a.u.
2'F-ANA at 2 8 9 11 14	128 a.u.
2'F-ANA at 1 6 10 12 13 15	78.2 a.u.
2'F-ANA at 1 2 6 9 15	164 a.u.
2'F-ANA at 1 3 5 6 7 9 10 15	54.3 a.u.
2'F-ANA at 2 3 6 7 9 10 11	297 a.u.
2'F-ANA at 4 5 11 12 13 14 15	44.4 a.u.
2'F-ANA at 1 3 5 7 10 11 12 13	46.2 a.u.
2'F-ANA at 1 2 5 6 7 8 12 13 14 15	62.1 a.u.
2'F-ANA at 2 3 5 7 10 11 13 14	55.7 a.u.
2'F-ANA at 3 4 5 7 8 10 11 15	61.3 a.u.
2'F-ANA at 1 2 3 4 8 10 14	85.9 a.u.
2'F-ANA at 2 3 4 6 8 11 12 13	544 a.u.
2'F-ANA at 1 3 5 6 9 13	63.5 a.u.
2'F-ANA at 1 4 5 7 8 9 12	124 a.u.
2'F-ANA at 2 4 5 6 9 10 11 12 14	46.6 a.u.
2'F-ANA at 3 4 5 6 7 8 11 12 15	149 a.u.
2'F-ANA at 2 5 6 8 10 12 13	47.5 a.u.
2'F-ANA at 2 3 4 6 7 8 13 14 15	267 a.u.
2'F-ANA at 1 2 5 6 8 9 12 13 15	75.8 a.u.
2'F-ANA at 1 2 4 7 8 9 10 11 12 14	147 a.u.

Series 5
Target: Centromere-binding protein 1, full length, His-tagged (CBF1, Saccharomyces cerevisiae, UniProt P17106, residues 1-351)
UniProt P17106, sequence (whole entry, looked up): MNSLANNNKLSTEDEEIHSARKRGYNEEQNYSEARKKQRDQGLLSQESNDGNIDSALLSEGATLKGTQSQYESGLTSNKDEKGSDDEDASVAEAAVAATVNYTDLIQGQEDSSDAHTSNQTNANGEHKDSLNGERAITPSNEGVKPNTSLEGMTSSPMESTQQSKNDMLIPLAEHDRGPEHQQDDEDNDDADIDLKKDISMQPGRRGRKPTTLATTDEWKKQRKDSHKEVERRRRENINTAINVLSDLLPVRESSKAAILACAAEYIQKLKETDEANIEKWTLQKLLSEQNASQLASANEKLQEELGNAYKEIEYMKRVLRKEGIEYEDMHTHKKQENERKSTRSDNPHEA
Technique: competition protein-binding microarray
Form: double-stranded DNA, one strand shown
Matrix: in vitro
Tested at: 2 µM
Setting: whole 60-bp probe, lowest competitor level
Added: Pho4 competitor, 0.05 µM
Direction: higher = stronger binding
Shared flanks, not repeated: … GTCTTGATTCGCTTGACGCTGCTG
Sequence	fluorescence intensity [a.u.]
CCTGGAGAACCGGGAGGCGTGGGTAAGTTGCTTGAA	69.7
GTCTTGTCTCATTGGGAGGTGGGTGTCCCCACTTCA	76.2
CCCCTATACATGGGGTACGTGCCAGTATTTTGAGGG	115
TGCGCAACAACTTGTCACATTACTTTATGTCTAGAA	152
GATCGATCGAATTTCCCCGTGCCGAAATTGTTCTGC	103
GTCTTGTCTCATTGTCACAGTACTTTCCCCACTTCA	96.3
TTGACGGAAAAACGCTGTGTGACGGAGACTAGCCTG	50.7
TTTTTCCTCTCTGGCCAGGTGACGTTCTGAATTTTT	146
CGCTTTCCTATTGCGCGCATGACAAGGATGGAAAAA	119
TGTAAATTTTTGTATAATTTCATCATGGAGGTGCAT	99.2
CTAACGAAGGTTTGATTTGTGGGTGACAAGCCAAGT	70.4
GTCTTGTCTCATTGTCACGACACTTTCCCCACTTCA	211
CGTCCTAGCGATTGAGGCGTGGGTGCCATGAGGAAG	66.4
CGTCCTAGTGATTTTCACGTGCGCTCCATGAGGAAG	966
AAGGCAACAAGCCGACACGTGGAGGAAAGCCAGGAG	537
TTCCGGGGAACGTCCCACGTTCACAACCGCGCCGCG	59.9
CTTTCCCGATCTTTTCACGTGTTTTTAGCACATTTG	1130
CGTTTTTTTTCCCGACACGTGTCGGAGAAGAGTTTG	1900
CTACGGATCGCATCGCACGTTTGTTTACAATTGATG	99.9
TGCGCAACAACTTGGACCGTGGGTGTATGTCTAGAA	57.5
CTCTCGGGCGTCGCCAACGTGGTCGTTCAAATGCTT	77.6
CATACCCAACCTTGTCACTCCACTTAAGATATTTGT	67.2
CTTCTGTAAATTTGTCACTGAACTTGACGCGCCCCG	66
AGACTGAAAGTTTTGCATGATCAATTTCTCTCATTG	81.1
GTCTTGAAGTTGGCGCACATGGAAATCAAATGACCA	143

Excerpt of the above (series 4):
Modification	mean fluorescence intensity
2'F-ANA at 1 3 5 6 9 13	63.5 a.u.
2'F-ANA at 1 4 5 7 8 9 12	124 a.u.
2'F-ANA at 2 4 5 6 9 10 11 12 14	46.6 a.u.
2'F-ANA at 3 4 5 6 7 8 11 12 15	149 a.u.
2'F-ANA at 2 5 6 8 10 12 13	47.5 a.u.
2'F-ANA at 2 3 4 6 7 8 13 14 15	267 a.u.
2'F-ANA at 1 2 5 6 8 9 12 13 15	75.8 a.u.
2'F-ANA at 1 2 4 7 8 9 10 11 12 14	147 a.u.
